Assay results of several laboratories.
Every numbered part comes from another study and shows a few of its results, in no order. Positions count from the first letter of the parent shown.

Series 1
Target: CCND1, cyclin fold, Cln2 fusion (human)
Technique: yeast growth competition, sequencing
Matrix: yeast
Notes: strong parent motif
Reference: not given
Reading: higher = stronger binding
Parent: PKN2 docking peptide (human); VSAVQKLDFSDTM; partner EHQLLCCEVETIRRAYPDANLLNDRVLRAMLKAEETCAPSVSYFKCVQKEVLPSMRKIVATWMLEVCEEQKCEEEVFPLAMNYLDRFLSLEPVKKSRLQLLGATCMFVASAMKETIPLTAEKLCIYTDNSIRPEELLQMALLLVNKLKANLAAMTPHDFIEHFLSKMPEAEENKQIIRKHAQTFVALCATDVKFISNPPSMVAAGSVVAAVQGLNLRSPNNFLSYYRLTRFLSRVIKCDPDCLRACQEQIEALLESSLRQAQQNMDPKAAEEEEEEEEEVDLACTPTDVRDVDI
| Change | normalised enrichment score |
| --- | --- |
| S10W | 1.28 |
| V1E | 1.36 |
| K6I | 0.979 |
| S10E | 2.67 |
| D8K | 0.706 |
| T12E | 2.79 |
| A3H | 0.935 |

Series 2
Target: Prothrombin, mature alpha-thrombin (F2, Homo sapiens, UniProt P00734)
Technique: aptamer microarray, sandwich
Form: DNA with 2'F-ANA
Matrix: in vitro
Concentration: 200 nM
Notes: whole 15-mer aptamer, many near background
Together with: Cy3 exosite-II aptamer, 400 nM
Reading: higher = stronger binding
Sequence: GGTTGGTGTGGTTGG
| Modification | mean fluorescence intensity |
| --- | --- |
| 2'F-ANA at 1 2 3 5 6 9 11 13 14 | 47.7 a.u. |
| 2'F-ANA at 1 6 7 8 10 11 12 15 | 69.6 a.u. |
| 2'F-ANA at 1 2 3 4 7 8 10 11 13 14 | 50.3 a.u. |
| 2'F-ANA at 1 2 4 7 8 9 11 | 118 a.u. |
| 2'F-ANA at 1 2 3 4 5 8 9 11 14 15 | 55 a.u. |
| 2'F-ANA at 2 3 4 5 7 8 9 10 11 15 | 80.4 a.u. |
| 2'F-ANA at 6 7 8 10 12 | 229 a.u. |
| 2'F-ANA at 2 3 5 6 8 10 11 13 14 15 | 54.5 a.u. |
| 2'F-ANA at 3 4 9 11 12 14 15 | 313 a.u. |
| 2'F-ANA at 1 2 3 5 8 10 12 | 48.5 a.u. |
| 2'F-ANA at 3 5 6 7 8 9 10 13 14 15 | 112 a.u. |

Series 3
Target: Histone acetyltransferase KAT6A, winged helix 2, GST fusion (KAT6A, Homo sapiens, UniProt Q92794, residues 85-181)
Technique: protein binding microarray
Form: double-stranded DNA, one strand shown
Matrix: in vitro
Concentration: not given
Notes: 8-mer, flanks averaged, mean of 2 arrays, mostly near background
Reference: not given
Reading: higher = stronger binding
Construct (chain): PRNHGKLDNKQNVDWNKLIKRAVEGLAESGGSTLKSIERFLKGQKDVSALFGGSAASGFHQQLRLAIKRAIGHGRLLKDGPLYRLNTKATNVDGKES
| Sequence | E-score |
| --- | --- |
| AGGAAAAG | 0.12 |
| ATACAAAC | 0.119 |
| AAAAGCCT | -0.0628 |
| ATACCCCC | -0.0202 |
| ATAAAAGG | -0.127 |
| TCCGCGAA | 0.166 |
| ATTTCTCA | 0.0698 |
| ACCGCATC | 0.14 |
| CTTTCCAA | 0.0047 |
| GCCTTTCA | -0.00988 |
| GAGTTGCA | -0.0339 |
| ACAGTGAG | 0.0211 |
| AGGGGACA | -0.00284 |

Further values, each from its own experiment
| Molecule | target | test | system | conditions | how to read | measurement | result |
| --- | --- | --- | --- | --- | --- | --- | --- |
| PhoQ, residues 284 288 289 292 302 303 SVHLDV | PhoP, residues 12 14 15 18 19 NFCKL (Escherichia coli, UniProt P23836) | Sort-seq, item: YFP reporter | E. coli | PhoQ-PhoP variant library, together with: 10 µM Mg2+ | reference: high Mg2+ state, higher = stronger signaling | fold induction | 14.9 |

Some of these lines once more (series 1):
| Change | normalised enrichment score |
| --- | --- |
| K6I | 0.979 |
| S10E | 2.67 |
| T12E | 2.79 |
